Published values gathered from unrelated publications.
Protocols differ between the studies behind these lines.
MAPK8: Mitogen-activated protein kinase 8 (MAPK8, Homo sapiens, UniProt P45983)

Protein sequences, listed by entry. Tags and fused reporters are not part of them. Residues count along the entry.
UniProt P45983, 1-384 isoform 3: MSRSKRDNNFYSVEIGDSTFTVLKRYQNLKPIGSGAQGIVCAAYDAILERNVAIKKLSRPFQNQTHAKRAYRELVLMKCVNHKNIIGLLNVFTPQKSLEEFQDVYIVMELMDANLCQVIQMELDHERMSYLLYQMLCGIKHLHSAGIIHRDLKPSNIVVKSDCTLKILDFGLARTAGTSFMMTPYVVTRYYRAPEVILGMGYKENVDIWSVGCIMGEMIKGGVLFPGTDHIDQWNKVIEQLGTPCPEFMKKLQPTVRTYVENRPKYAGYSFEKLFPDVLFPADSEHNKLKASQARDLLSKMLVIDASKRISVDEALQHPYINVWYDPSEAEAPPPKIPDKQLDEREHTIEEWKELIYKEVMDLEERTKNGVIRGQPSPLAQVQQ
UniProt P35372, whole entry, looked up: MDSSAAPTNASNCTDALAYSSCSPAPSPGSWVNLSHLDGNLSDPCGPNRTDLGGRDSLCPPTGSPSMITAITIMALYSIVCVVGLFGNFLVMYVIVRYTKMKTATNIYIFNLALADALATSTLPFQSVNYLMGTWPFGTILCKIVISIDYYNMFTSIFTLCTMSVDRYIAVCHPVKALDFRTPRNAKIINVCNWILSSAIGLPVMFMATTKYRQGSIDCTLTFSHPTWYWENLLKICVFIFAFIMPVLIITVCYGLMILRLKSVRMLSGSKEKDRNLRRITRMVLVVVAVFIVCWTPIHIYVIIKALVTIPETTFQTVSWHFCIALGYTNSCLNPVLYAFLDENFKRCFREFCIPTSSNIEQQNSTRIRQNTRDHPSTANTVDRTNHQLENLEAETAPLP
UniProt P08908, whole entry: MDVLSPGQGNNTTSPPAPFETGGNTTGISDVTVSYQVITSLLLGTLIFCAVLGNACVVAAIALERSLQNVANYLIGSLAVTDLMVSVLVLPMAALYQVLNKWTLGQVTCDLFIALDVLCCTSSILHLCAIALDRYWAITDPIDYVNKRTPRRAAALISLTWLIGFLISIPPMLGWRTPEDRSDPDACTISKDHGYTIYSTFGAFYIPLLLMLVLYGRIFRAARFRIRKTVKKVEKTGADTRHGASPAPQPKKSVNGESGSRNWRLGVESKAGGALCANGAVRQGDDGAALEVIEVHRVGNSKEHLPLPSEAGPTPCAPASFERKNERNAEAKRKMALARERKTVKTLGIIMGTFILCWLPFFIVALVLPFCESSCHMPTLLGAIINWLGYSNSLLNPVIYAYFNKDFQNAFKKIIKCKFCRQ
UniProt Q9HBH9, whole entry C225S: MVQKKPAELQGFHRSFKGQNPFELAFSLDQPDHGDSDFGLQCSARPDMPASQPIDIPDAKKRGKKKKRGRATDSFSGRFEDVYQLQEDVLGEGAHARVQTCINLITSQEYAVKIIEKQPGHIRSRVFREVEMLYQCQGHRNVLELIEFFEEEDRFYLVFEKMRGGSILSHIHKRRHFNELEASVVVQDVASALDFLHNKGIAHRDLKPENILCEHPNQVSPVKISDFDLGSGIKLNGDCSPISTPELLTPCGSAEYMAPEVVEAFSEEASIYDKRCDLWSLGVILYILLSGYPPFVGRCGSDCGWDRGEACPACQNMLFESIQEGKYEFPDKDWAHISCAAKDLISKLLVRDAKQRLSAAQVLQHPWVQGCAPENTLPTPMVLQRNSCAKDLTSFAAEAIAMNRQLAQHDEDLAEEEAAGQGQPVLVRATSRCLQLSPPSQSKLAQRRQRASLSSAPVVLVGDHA
UniProt Q81258, 2431-3021 limits assumed: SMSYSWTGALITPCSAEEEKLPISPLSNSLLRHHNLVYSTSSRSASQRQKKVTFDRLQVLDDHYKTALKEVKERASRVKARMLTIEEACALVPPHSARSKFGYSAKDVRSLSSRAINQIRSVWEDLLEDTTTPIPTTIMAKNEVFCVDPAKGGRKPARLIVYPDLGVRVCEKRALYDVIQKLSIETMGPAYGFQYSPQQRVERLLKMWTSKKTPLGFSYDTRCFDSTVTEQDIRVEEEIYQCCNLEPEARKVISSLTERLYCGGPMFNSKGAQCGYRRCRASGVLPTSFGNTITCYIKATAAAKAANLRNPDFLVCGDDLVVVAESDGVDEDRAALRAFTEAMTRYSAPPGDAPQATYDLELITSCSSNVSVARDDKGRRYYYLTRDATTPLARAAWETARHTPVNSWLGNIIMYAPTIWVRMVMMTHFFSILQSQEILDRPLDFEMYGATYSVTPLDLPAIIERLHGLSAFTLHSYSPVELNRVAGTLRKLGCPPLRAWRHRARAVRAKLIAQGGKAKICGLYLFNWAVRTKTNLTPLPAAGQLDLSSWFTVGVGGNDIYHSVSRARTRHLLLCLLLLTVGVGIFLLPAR

SMILES	tested on	assay	system	setting	how to read	measurement	value
COC(=O)[C@@]1(C)C=C(C(=O)Nc2cc(C(=O)Nc3ccc(Nc4nccc(-c5cccnc5)n4)cc3)ccc2C)C(=O)CC1	MAPK8	kinase activity, inhibitor	–	8.363e-05 µM, unit not given, together with: 10 mM GSH	baseline: DMSO	remaining activity	1.01
CN(C)c1cc(CN2CCOCC2)nc2nc(NCc3ccc(C(C)(C)C)cc3)nn12	Saccharomyces cerevisiae	–	efflux-deficient, lacking 16 ABC transporters	123 µg/mL, phosphatidic acid absent	–	growth inhibition	100%
COCOc1ccc(C(=O)OC2=C[C@@H](C(=O)OC)[C@]3(C)CC[C@H]4C(=O)O[C@H](c5ccoc5)C[C@]4(C)[C@H]3C2=O)cc1F	Mu-type opioid receptor, with beta-arrestin-2 (OPRM1, Homo sapiens, UniProt P35372)	agonist	–	–	–	bias factor	0.15
COc1ccc(CN[C@@H]2CO[C@H](C(c3ccccc3)c3ccccc3)C[C@H]2O)cc1	HTR1A (Homo sapiens, UniProt P08908)	radioligand binding	–	10 µM, together with: [3H]8-OH-DPAT	–	inhibition	45.9%
C=CC(=O)Nc1cc(-n2c(=O)ccc3cnc4ccc(-c5cn[nH]c5)cc4c32)ccc1C	MKNK2 (Homo sapiens, UniProt Q9HBH9, C225S)	enzyme activity, inhibitor, immunoprecipitated kinase	–	–	–	highest concentration rescued by mutant	> 3 µM
COC(=O)[C@@H](CS)N1C(=O)c2ccc(N(C)C)cc2C1=O	Metallo-beta-lactamase type 2 (Serratia marcescens, UniProt P52699)	probe	–	10 µM, probe:enzyme 1:3, together with: ZnSO4 10 µM	baseline: probe alone	fluorescence increase	3.8 fold
COC(=O)[C@@]1(C)C=C(C(=O)Nc2ccc(C)c(C(=O)Nc3ccc(Nc4nccc(-c5cccnc5)n4)cc3)c2)C(=O)CC1	MAPK8	kinase activity, inhibitor	–	0.06097 µM, unit not given, together with: 10 mM GSH	baseline: DMSO	remaining activity	0.22
O=c1ccn([C@@H]2O[C@H](COP(=O)(O)OP(=O)(O)OP(=O)(O)O)[C@@H](O)[C@]2(F)Br)c(=O)[nH]1	Genome polyprotein, NS5B polymerase (Hepatitis C virus genotype 3a, UniProt Q81258)	polymerase activity, inhibitor	Hepatitis C virus, genotype 3a	–	baseline: genotype 1b	IC50 fold change	2.8

Some of these lines once more:
SMILES	tested on	assay	system	setting	how to read	measurement	value
C=CC(=O)Nc1cc(-n2c(=O)ccc3cnc4ccc(-c5cn[nH]c5)cc4c32)ccc1C	MKNK2 (Homo sapiens, UniProt Q9HBH9, C225S)	enzyme activity, inhibitor, immunoprecipitated kinase	–	–	–	highest concentration rescued by mutant	> 3 µM
